Measurements collected from several papers.
Each line is one published result; not all experiments were run side by side.

CCN1CCN(Cc2ccc(Nc3ncc(F)c(-c4cc(F)c5nc6n(c5c4)[C@H](C)CCC6)n3)nc2)CC1
Cmax (human, plasma; 100 mg multiple dosing, mean): 173 ng/mL

CCn1cc(C(=O)N2CCOCC2)c(=O)c2cc(NC3Cc4ccccc4C3)cnc21
Cmax (human, fasted; oral suspension, 15 mg single dose, arithmetic mean): 116 ng/mL

COc1nc(-c2cc(C)c(N[C@@H](C)c3cc(F)cc(F)c3)nn2)ccc1-n1cnc(C)c1
Cmax (cynomolgus monkey, male, plasma; oral, nasogastric, 2 mg/kg): 304 ng/mL

CN(C(=O)n1cnc(-c2ccc[n+]([O-])c2)c1)[C@H]1CC[C@H](O)CC1
Cmax (cynomolgus monkeys, plasma; oral, 1.0 mg/kg): 23.5 ng/mL

CC[C@H](C)[C@@H]1NC(=O)[C@@](C)(NC(=O)[C@H](CCCNC(=N)N)NC(=O)[C@H](CC(C)C)NC(=O)[C@@H](NC(=O)[C@H](CCC(N)=O)NC(=O)[C@H](CC(C)C)NC(C)=O)[C@@H](C)O)CCCC=CCCC[C@@](C)(C(=O)N[C@@H](CC(C)C)C(=O)N[C@@H](Cc2ccc3ccccc3c2)C(N)=O)NC(=O)[C@H](CCCNC(=N)N)NC(=O)[C@H](CCC(N)=O)NC1=O
Cmax (BALB/c mouse; intraperitoneal, 5 mg/kg): 19600 ng/mL

COc1ccc2[nH]c([S+]([O-])Cc3ncc(C)c(OC)c3C)nc2c1 (stereo not shown)
Cmax (healthy Chinese volunteers, plasma; oral, 20 mg, fasted, CYP2C19 rapid metabolizers): 191 ng/mL

CC1(C)c2nc(-c3ccc(F)cc3)c(Nc3ccc(F)cc3)n2CCN1C(=O)CN
Cmax (NMRI mouse Plasmodium berghei-infected, blood; oral, 5 mg/kg, monotherapy): 1020 nM

O=C(O)C[C@H](O)C[C@H](O)/C=C/c1c(C2CC2)nc2ccccc2c1-c1ccc(F)cc1
Cmax (FVB wild-type mouse, plasma; oral, 5 mg/kg, with: silymarin 500 mg/kg oral): 34 nM

CCc1nc(C(N)=O)c(Nc2ccc(N3CCC(N4CCN(C)CC4)CC3)c(OC)c2)nc1NC1CCOCC1
Cmax (Japanese patients, plasma; oral, 300 mg, cycle 0 day -2, single dose, mean): 292 ng/mL

CCOc1c([C@H](C)n2nc(C)c3c(N)ncnc32)cc(Cl)c(F)c1[C@@H]1CNC(=O)C1
Cmax (patients, monotherapy; oral, 5 mg once daily, cycle 1 day 1): 354 nM

CN1CCC[C@H](CN2c3ccccc3Sc3ccccc32)C1.Cl
Cmax (fasted female ICR mouse, liver; oral, 16 mg/kg): 9860 ng/g

C=CCn1c(=O)c2cnc(Nc3ccc(N4CCN(C)CC4)cc3)nc2n1-c1ccc2c(n1)[C@@](O)(CC)CC2
Cmax (female NOD/SCID mouse OVCAR-3 xenograft, plasma; oral, 100 mg/kg once daily, :2): 6080 ng/mL

CNC(=O)c1ccc(-c2cnc3ncc(Cc4ccc5ncccc5c4)n3n2)cc1F
Cmax (human, plasma; oral, 200 mg, mean): 1470 ng/mL

For quick reference, copied from above:
CC1(C)c2nc(-c3ccc(F)cc3)c(Nc3ccc(F)cc3)n2CCN1C(=O)CN
Cmax (NMRI mouse Plasmodium berghei-infected, blood; oral, 5 mg/kg, monotherapy): 1020 nM

O=C(O)C[C@H](O)C[C@H](O)/C=C/c1c(C2CC2)nc2ccccc2c1-c1ccc(F)cc1
Cmax (FVB wild-type mouse, plasma; oral, 5 mg/kg, with: silymarin 500 mg/kg oral): 34 nM
